Published values collected from several papers.
Numbered parts are unrelated; each lists some results of a single study.
UniProt P10721, sequence (whole entry, unmodified, looked up): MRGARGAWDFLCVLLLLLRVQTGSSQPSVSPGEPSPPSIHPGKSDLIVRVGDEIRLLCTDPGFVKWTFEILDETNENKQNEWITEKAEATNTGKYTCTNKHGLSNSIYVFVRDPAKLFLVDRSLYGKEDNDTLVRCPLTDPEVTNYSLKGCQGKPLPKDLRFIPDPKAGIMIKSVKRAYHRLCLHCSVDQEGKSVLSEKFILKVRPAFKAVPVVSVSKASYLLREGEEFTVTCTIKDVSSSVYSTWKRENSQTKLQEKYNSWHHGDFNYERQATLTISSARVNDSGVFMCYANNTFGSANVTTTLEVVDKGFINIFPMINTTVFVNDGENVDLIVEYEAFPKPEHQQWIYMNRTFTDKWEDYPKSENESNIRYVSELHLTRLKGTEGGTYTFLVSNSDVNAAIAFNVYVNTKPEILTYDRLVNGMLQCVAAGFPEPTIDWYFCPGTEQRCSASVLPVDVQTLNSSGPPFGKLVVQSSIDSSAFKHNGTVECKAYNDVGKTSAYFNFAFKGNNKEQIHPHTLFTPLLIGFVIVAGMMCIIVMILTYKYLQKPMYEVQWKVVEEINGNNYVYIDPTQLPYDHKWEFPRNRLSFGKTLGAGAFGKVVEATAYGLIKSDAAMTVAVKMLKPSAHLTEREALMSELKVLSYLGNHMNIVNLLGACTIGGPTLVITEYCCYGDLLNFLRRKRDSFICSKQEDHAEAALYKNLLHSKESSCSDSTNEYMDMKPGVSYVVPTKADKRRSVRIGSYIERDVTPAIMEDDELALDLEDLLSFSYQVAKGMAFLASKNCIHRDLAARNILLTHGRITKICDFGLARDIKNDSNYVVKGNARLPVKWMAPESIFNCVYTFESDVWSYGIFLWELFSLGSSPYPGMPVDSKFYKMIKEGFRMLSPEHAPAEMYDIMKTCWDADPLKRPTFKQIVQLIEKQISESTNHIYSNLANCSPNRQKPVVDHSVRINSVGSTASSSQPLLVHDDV
UniProt Q13188, sequence (whole entry, looked up): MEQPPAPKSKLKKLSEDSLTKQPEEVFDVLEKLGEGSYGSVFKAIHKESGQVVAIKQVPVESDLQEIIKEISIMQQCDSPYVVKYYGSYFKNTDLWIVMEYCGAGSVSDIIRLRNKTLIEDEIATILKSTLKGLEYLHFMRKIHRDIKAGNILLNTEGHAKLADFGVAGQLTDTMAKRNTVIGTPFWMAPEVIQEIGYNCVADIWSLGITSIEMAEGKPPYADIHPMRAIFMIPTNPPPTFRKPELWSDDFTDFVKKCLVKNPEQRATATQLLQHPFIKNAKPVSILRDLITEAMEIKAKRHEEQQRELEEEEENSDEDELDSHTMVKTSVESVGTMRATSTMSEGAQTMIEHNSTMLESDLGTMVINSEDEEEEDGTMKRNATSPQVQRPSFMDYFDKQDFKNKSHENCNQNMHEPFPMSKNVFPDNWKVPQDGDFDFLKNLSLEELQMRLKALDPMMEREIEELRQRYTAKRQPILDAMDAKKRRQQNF
UniProt Q08345, sequence (whole entry, looked up): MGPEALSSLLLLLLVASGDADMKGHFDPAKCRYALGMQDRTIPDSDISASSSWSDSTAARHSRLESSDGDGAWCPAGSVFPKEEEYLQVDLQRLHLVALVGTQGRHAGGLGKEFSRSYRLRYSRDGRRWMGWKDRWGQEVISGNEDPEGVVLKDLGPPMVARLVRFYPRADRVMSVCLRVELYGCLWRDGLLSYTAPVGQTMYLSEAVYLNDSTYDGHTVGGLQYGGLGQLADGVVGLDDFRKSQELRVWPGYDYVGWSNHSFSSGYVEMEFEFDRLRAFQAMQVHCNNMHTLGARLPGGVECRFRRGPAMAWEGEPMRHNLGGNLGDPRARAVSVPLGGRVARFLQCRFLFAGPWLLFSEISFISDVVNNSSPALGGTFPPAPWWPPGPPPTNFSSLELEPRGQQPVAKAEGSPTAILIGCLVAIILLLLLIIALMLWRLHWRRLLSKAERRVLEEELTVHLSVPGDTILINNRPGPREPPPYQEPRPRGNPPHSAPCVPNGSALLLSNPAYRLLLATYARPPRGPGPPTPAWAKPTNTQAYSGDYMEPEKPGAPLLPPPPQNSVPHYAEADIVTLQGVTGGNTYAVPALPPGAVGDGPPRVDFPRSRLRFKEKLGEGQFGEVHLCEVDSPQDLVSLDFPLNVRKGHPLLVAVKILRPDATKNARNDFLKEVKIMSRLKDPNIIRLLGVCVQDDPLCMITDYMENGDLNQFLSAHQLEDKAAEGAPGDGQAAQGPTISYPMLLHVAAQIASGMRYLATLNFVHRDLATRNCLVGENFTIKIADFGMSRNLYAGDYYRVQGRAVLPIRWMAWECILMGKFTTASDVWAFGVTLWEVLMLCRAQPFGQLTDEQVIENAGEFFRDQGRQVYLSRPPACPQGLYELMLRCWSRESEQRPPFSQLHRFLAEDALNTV
UniProt O00750, sequence (whole entry, looked up): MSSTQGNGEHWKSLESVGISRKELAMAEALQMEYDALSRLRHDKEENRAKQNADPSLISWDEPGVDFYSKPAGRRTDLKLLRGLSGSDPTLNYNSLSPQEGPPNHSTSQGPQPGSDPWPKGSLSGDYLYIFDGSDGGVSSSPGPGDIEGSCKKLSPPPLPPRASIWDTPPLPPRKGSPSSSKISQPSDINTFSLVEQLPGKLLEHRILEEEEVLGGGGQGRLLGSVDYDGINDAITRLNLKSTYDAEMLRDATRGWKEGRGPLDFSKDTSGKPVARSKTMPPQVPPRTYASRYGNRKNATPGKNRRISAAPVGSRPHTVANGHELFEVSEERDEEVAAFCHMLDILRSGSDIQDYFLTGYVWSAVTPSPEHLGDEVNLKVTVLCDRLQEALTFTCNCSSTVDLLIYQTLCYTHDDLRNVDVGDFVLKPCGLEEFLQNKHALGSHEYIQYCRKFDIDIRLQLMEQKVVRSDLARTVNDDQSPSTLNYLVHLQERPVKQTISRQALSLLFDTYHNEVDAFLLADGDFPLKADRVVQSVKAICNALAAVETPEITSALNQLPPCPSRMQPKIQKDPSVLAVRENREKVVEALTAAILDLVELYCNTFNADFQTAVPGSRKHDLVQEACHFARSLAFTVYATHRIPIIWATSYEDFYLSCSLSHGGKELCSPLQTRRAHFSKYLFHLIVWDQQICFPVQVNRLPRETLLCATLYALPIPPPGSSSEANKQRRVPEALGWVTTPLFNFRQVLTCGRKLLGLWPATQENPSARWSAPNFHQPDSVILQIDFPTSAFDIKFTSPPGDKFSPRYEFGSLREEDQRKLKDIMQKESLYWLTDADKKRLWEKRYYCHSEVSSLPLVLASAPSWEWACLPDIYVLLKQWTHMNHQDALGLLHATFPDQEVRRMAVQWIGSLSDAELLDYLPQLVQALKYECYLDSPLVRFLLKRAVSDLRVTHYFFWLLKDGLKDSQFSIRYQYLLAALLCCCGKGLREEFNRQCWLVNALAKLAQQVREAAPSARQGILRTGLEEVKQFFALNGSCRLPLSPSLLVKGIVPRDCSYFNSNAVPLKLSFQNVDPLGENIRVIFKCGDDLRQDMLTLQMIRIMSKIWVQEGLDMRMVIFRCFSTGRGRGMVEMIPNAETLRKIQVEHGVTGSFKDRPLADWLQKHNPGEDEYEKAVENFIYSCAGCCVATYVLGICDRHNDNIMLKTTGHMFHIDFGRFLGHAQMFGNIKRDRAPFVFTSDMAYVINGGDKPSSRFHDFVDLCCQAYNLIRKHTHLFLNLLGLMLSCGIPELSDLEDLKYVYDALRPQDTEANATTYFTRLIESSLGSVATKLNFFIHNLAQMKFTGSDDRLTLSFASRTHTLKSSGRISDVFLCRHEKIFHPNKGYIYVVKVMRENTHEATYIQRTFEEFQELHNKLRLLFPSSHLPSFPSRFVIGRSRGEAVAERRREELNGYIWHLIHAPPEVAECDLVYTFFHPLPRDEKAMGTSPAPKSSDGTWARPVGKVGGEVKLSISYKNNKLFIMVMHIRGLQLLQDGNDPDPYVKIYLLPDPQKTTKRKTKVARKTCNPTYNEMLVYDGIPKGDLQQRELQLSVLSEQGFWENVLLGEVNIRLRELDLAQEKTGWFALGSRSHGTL
UniProt Q9UPZ9, sequence (whole entry, looked up): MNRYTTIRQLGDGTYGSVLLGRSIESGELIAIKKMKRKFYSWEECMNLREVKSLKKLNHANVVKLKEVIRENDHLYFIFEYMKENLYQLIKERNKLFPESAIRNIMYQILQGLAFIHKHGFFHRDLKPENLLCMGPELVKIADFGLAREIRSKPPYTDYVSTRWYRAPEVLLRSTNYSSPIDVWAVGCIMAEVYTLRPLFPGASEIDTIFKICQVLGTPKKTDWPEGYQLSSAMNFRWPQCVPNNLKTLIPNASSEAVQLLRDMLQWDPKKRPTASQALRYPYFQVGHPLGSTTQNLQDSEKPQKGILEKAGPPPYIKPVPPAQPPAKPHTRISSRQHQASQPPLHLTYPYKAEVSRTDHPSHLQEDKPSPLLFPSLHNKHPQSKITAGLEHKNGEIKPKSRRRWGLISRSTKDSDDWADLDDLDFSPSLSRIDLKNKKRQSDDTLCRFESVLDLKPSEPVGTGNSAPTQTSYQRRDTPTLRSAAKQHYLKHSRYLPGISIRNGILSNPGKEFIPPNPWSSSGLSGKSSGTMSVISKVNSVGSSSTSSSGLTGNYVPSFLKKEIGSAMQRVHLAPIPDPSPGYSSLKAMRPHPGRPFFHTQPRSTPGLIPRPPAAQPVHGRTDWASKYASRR

Study 1 — method: Spec-seq; form: double-stranded DNA, one strand shown; sample: in vitro; tested at: not given; notes: whole probe, mean of replicates; reference: not given; reading: lower = stronger binding; endpoint: relative binding energy; all sequences stand within: GAGTCGTCTCGTCAGCAC … CCGTAGAGCACTCAGGTC
Target: POU domain, class 5, transcription factor 1, POU domain (Pou5f1, Mus musculus, UniProt P20263, residues 131-289)
UniProt P20263, sequence (131-289, looked up): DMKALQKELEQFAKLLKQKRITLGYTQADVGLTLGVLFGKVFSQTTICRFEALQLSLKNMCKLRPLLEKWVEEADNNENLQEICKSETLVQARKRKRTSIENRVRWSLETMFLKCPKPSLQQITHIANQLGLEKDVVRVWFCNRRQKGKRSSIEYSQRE
Sequence = ATGCGACA; value = 0.156 ln ratio
Sequence = CATCTAAT; value = 0.663 ln ratio
Sequence = CGTTTAAT; value = 0.744 ln ratio
Sequence = ATAGGGAT; value = 0.598 ln ratio
Sequence = GACATAAT; value = 0.357 ln ratio
Sequence = ATGCCCCC; value = 0.783 ln ratio
Sequence = AAATTAAT; value = -0.811 ln ratio
Sequence = ATCACGAT; value = 0.679 ln ratio

Study 2 — method: competition with immobilised ligand; tested at: 1 µM; endpoint: remaining binding
SMILES: CCc1ccccc1C(=O)Nc1n[nH]c2c(C)c(F)c(C3C(C#N)=C(C)N(C)C(C)=C3C#N)cc12
target = Uncharacterized serine/threonine-protein kinase SBK3 (SBK3, Homo sapiens, UniProt P0C264); effect on = cell-free assay; value = 73%
target = Ribosomal protein S6 kinase alpha-4, C-terminal kinase domain (RPS6KA4, Homo sapiens, UniProt O75676); effect on = cell-free assay; value = 100%
target = Mitogen-activated protein kinase kinase kinase kinase 5 (MAP4K5, Homo sapiens, UniProt Q9Y4K4); effect on = cell-free assay; value = 100%
target = Dual specificity protein kinase TTK (TTK, Homo sapiens, UniProt P33981); effect on = binding; value = 82%
target = Calcium/calmodulin-dependent protein kinase type II subunit alpha (CAMK2A, Homo sapiens, UniProt Q9UQM7); effect on = cell-free assay; value = 47%
target = Phosphatidylinositol 4-phosphate 3-kinase C2 domain-containing subunit beta (PIK3C2B, Homo sapiens, UniProt O00750); effect on = cell-free assay; value = 100%
target = Ephrin type-B receptor 1 (EPHB1, Homo sapiens, UniProt P54762); effect on = cell-free assay; value = 100%
target = Serine/threonine-protein kinase 3 (STK3, Homo sapiens, UniProt Q13188); effect on = cell-free assay; value = 80%
target = Mast/stem cell growth factor receptor Kit (KIT, Homo sapiens, UniProt P10721, V559D/V654A); effect on = cell-free assay; value = 100%
target = Epithelial discoidin domain-containing receptor 1 (DDR1, Homo sapiens, UniProt Q08345); effect on = cell-free assay; value = 48%
target = TRAF2 and NCK-interacting protein kinase (TNIK, Homo sapiens, UniProt Q9UKE5); effect on = cell-free assay; value = 78%
target = Serine/threonine-protein kinase ICK (CILK1, Homo sapiens, UniProt Q9UPZ9); effect on = binding; value = 100%
target = Mast/stem cell growth factor receptor Kit (KIT, Homo sapiens, UniProt P10721, L576P); effect on = cell-free assay; value = 91%

Study 3 — effect on: enzyme activity; mode: inhibitor; tested at: 0.5 µM; reference: control; endpoint: remaining activity
Compound: COc1cc(Nc2c(C#N)cnc3cc(OCCCN4CCN(C)CC4)c(OC)cc23)c(Cl)cc1Cl
target = Calcium/calmodulin-dependent protein kinase type IV (CAMK4, Homo sapiens, UniProt Q16566); value = 90.7%
target = G protein-coupled receptor kinase 4 (GRK4, Homo sapiens, UniProt P32298); value = 92.4%
target = Cyclin-dependent kinase 9, with cyclin K (CDK9, Homo sapiens, UniProt P50750); value = 102%
target = Mitogen-activated protein kinase 14 (MAPK14, Homo sapiens, UniProt Q16539); value = 88.6%
target = Discoidin domain-containing receptor 2 (DDR2, Homo sapiens, UniProt Q16832); value = 105%
target = Cyclin-dependent kinase 1, with cyclin A (CDK1, Homo sapiens, UniProt P06493); value = 96.9%
target = Dual specificity protein kinase CLK4 (CLK4, Homo sapiens, UniProt Q9HAZ1); value = 76.6%
target = Rho-associated protein kinase 1 (ROCK1, Homo sapiens, UniProt Q13464); value = 105%
target = Calcium/calmodulin-dependent protein kinase type 1B (PNCK, Homo sapiens, UniProt Q6P2M8); value = 109%
target = Serine/threonine-protein kinase MRCK beta (CDC42BPB, Homo sapiens, UniProt Q9Y5S2); value = 88.2%
target = Misshapen-like kinase 1 (MINK1, Homo sapiens, UniProt Q8N4C8); value = 1.21%

Mixed results
Molecule = PhoQ, residues 284 288 289 292 302 303 NLCILV; target = PhoP, residues 12 14 15 18 19 NMSSL (Escherichia coli, UniProt P23836); test = Sort-seq, item: YFP reporter; system = E. coli; setting = PhoQ-PhoP variant library, added: 10 µM Mg2+; how to read = reference: high Mg2+ state, higher = stronger signaling; endpoint = fold induction; value = 17
